Published values pooled from the literature.
Parts stem from different laboratories: compare values within a part only. Positions count from the first letter of the parent shown.
Chain of UniProt P78356 (whole entry, looked up): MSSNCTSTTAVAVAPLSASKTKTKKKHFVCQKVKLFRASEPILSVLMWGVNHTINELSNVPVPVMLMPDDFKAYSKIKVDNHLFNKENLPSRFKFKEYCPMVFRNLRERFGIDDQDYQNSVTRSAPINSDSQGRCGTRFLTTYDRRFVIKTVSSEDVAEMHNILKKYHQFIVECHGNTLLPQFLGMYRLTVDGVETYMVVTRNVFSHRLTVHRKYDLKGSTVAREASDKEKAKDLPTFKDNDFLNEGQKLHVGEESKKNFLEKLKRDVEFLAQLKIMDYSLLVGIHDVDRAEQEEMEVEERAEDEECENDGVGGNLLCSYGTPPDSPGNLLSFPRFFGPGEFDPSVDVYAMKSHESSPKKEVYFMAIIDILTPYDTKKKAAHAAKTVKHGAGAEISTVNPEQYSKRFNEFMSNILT
Chain of UniProt Q94JM3 (whole entry, looked up): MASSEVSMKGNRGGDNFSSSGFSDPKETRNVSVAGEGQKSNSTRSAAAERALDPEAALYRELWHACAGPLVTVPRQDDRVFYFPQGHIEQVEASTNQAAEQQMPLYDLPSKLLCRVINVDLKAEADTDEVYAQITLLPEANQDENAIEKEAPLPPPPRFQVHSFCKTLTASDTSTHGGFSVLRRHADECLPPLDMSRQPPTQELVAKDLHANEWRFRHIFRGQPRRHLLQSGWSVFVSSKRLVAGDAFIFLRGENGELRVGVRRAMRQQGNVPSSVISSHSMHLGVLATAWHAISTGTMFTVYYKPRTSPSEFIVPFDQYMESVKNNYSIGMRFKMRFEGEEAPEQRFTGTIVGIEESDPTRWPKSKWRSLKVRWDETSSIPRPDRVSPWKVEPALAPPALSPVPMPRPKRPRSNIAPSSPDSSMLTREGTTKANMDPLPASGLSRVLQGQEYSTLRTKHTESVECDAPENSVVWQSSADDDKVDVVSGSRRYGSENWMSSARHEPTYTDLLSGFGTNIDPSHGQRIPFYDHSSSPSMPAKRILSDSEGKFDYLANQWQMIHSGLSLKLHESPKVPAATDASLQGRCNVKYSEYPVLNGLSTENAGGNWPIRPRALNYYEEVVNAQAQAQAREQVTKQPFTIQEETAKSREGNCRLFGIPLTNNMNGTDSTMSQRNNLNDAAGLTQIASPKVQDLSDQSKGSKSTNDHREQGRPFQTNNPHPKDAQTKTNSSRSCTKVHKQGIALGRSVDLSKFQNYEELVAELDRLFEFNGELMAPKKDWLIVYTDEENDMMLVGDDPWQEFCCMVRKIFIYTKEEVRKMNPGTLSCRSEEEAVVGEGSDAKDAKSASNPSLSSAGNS
Chain of UniProt Q86Y07 (whole entry, looked up): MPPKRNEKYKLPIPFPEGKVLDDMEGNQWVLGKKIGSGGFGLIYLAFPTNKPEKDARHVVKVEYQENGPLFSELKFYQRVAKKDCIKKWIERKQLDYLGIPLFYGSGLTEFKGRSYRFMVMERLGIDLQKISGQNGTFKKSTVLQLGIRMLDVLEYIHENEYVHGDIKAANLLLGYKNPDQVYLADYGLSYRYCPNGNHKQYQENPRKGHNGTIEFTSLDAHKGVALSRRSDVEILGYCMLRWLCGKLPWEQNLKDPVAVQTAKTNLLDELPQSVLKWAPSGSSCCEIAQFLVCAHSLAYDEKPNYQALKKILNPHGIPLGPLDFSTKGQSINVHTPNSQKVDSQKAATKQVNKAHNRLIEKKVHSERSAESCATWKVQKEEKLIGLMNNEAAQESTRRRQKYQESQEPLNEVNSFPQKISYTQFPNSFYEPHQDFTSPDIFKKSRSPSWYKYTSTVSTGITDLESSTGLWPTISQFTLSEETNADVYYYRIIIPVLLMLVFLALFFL
Chain of UniProt Q9ZPY6 (whole entry, looked up): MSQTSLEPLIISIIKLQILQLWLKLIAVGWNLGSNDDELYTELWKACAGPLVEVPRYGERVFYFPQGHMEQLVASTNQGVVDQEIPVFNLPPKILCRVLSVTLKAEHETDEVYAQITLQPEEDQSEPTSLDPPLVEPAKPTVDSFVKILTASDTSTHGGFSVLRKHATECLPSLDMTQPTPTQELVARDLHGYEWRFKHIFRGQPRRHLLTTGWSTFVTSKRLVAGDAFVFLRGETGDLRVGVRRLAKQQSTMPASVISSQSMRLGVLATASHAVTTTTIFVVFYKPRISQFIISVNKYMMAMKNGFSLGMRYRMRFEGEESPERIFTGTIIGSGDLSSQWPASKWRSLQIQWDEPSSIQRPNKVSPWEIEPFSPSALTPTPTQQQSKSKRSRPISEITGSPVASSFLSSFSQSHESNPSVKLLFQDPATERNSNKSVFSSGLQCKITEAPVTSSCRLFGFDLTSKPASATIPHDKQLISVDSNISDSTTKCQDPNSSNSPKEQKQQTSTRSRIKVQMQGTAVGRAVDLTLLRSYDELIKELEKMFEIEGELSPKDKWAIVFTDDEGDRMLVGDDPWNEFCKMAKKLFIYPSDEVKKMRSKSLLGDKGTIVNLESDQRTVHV
Chain of UniProt Q9LQE8 (whole entry, looked up): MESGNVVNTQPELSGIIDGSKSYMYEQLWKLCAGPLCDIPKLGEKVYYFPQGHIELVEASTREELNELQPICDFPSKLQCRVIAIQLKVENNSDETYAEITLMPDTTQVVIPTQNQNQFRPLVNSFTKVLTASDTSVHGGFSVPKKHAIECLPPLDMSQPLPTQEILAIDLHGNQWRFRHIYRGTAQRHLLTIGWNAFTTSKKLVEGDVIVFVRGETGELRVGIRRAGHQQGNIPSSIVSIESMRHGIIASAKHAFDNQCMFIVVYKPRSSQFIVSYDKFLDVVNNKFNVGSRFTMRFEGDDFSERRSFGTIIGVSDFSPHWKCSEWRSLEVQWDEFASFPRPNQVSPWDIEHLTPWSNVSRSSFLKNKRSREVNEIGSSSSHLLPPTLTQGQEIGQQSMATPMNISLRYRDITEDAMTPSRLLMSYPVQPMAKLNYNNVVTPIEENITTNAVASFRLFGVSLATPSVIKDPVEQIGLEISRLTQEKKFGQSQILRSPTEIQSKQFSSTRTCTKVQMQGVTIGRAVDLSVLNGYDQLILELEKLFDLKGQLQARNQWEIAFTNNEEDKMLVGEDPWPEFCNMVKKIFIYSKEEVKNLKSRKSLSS
Chain of UniProt Q8RYC8 (whole entry, looked up): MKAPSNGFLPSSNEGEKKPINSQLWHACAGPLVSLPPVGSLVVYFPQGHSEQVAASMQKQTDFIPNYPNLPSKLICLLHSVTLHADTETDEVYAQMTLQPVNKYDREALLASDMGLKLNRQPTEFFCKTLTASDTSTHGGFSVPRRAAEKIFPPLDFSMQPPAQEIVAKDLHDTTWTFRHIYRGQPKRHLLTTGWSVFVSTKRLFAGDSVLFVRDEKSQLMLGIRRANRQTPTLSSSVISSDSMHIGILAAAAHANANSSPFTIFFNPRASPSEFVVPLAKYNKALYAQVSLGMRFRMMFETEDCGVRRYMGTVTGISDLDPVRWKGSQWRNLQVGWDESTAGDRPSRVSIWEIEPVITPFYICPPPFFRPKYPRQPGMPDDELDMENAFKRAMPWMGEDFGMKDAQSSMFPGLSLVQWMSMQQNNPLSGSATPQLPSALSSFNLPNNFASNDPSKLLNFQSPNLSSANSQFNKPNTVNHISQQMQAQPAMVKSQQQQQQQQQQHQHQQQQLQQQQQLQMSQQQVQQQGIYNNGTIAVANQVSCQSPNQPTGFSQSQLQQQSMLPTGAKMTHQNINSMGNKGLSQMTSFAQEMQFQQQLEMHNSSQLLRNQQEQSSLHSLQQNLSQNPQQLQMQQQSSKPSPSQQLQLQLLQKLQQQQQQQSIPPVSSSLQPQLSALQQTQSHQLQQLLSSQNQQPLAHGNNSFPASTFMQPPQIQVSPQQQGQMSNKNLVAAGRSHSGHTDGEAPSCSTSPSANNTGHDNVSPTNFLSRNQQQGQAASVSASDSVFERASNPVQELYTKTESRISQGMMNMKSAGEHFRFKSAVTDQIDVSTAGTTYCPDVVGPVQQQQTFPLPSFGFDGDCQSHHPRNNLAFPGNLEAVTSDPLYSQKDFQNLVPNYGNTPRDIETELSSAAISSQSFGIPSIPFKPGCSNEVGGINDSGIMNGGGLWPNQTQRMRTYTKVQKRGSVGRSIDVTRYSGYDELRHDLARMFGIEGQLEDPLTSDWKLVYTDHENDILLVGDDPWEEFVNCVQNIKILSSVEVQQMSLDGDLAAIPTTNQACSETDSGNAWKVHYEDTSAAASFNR
Chain of UniProt Q9HBY8 (whole entry, looked up): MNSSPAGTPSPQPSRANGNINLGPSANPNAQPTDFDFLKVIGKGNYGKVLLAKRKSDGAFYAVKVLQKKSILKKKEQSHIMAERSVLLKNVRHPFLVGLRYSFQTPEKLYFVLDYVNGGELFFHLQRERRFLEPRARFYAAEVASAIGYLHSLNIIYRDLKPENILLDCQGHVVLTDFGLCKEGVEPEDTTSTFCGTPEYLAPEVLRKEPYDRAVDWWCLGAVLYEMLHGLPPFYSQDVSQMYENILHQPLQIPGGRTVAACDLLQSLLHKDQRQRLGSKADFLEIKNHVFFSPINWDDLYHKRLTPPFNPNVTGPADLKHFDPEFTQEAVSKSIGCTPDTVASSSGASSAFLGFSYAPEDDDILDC

Series 1 — method: competition with immobilised ligand; tested at: 1 µM; quantity: remaining binding
Structure (SMILES): CN([C@@H]1CCc2c(CC(=O)O)c3ccccc3n2C1)S(=O)(=O)c1ccc(F)cc1
target = Serine/threonine-protein kinase Nek7 (NEK7, Homo sapiens, UniProt Q8TDX7); assay = cell-free assay; value = 100%
target = STE20/SPS1-related proline-alanine-rich protein kinase (STK39, Homo sapiens, UniProt Q9UEW8); assay = cell-free assay; value = 100%
target = Serine/threonine-protein kinase DCLK2 (DCLK2, Homo sapiens, UniProt Q8N568); assay = cell-free assay; value = 100%
target = Serine/threonine-protein kinase Nek6 (NEK6, Homo sapiens, UniProt Q9HC98); assay = cell-free assay; value = 99%
target = Cyclin-dependent kinase 15 (CDK15, Homo sapiens, UniProt Q96Q40); assay = cell-free assay; value = 100%
target = Receptor tyrosine-protein kinase erbB-4 (ERBB4, Homo sapiens, UniProt Q15303); assay = cell-free assay; value = 100%
target = Serine/threonine-protein kinase Sgk2 (SGK2, Homo sapiens, UniProt Q9HBY8); assay = cell-free assay; value = 100%
target = Phosphatidylinositol 3-kinase catalytic subunit type 3 (PIK3C3, Homo sapiens, UniProt Q8NEB9); assay = cell-free assay; value = 97%
target = MAP kinase-activated protein kinase 5 (MAPKAPK5, Homo sapiens, UniProt Q8IW41); assay = cell-free assay; value = 94%
target = Ribosomal protein S6 kinase alpha-3, C-terminal kinase domain (RPS6KA3, Homo sapiens, UniProt P51812); assay = cell-free assay; value = 86%
target = Calcium/calmodulin-dependent protein kinase type II subunit delta (CAMK2D, Homo sapiens, UniProt Q13557); assay = cell-free assay; value = 100%
target = Receptor-interacting serine/threonine-protein kinase 4 (RIPK4, Homo sapiens, UniProt P57078); assay = cell-free assay; value = 85%
target = Serine/threonine-protein kinase TNNI3K (TNNI3K, Homo sapiens, UniProt Q59H18); assay = cell-free assay; value = 100%
target = Calcium/calmodulin-dependent protein kinase type II subunit beta (CAMK2B, Homo sapiens, UniProt Q13554); assay = cell-free assay; value = 99%
target = cAMP-dependent protein kinase catalytic subunit PRKX (PRKX, Homo sapiens, UniProt P51817); assay = cell-free assay; value = 100%
target = Vascular endothelial growth factor receptor 2 (KDR, Homo sapiens, UniProt P35968); assay = cell-free assay; value = 82%
target = Ephrin type-B receptor 2 (EPHB2, Homo sapiens, UniProt P29323); assay = cell-free assay; value = 100%
target = Serine/threonine-protein kinase VRK2 (VRK2, Homo sapiens, UniProt Q86Y07); assay = cell-free assay; value = 100%
target = Myosin-IIIb (MYO3B, Homo sapiens, UniProt Q8WXR4); assay = binding; value = 100%
target = Interleukin-1 receptor-associated kinase 3 (IRAK3, Homo sapiens, UniProt Q9Y616); assay = cell-free assay; value = 100%
target = Leukocyte tyrosine kinase receptor (LTK, Homo sapiens, UniProt P29376); assay = cell-free assay; value = 100%
target = Calcium/calmodulin-dependent protein kinase kinase 2 (CAMKK2, Homo sapiens, UniProt Q96RR4); assay = cell-free assay; value = 100%
target = Receptor-type tyrosine-protein kinase FLT3 (FLT3, Homo sapiens, UniProt P36888, ITD); assay = cell-free assay; value = 100%
target = Tyrosine-protein kinase Lyn (LYN, Homo sapiens, UniProt P07948); assay = cell-free assay; value = 100%
target = Phosphatidylinositol 5-phosphate 4-kinase type-2 beta (PIP4K2B, Homo sapiens, UniProt P78356); assay = cell-free assay; value = 80%

Series 2 — target: FOSL1, bZIP domain (human); method: DHFR protein complementation; medium: yeast; relative to: wild-type JUN-FOS pair; reading: higher = stronger binding; quantity: binding fitness
Setting: single substitutions, most at no-binding floor
Starting sequence: JUN, bZIP domain (human); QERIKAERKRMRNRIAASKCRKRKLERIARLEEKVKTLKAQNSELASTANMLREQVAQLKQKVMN; partner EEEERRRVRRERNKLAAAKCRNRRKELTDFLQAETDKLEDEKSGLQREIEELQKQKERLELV
Variant = V56G; value = -1.38 natural log
Variant = L59T; value = -1.39 natural log
Variant = A46I; value = -0.523 natural log
Variant = K34C; value = -0.67 natural log
Variant = Q55C; value = -0.567 natural log
Variant = Q55K; value = -0.459 natural log
Variant = L52S; value = -1.46 natural log
Variant = L31S; value = -1.21 natural log

Series 3 — Molecule: B1 (IAA2); method: two-hybrid; relative to: out of 4 tests; reading: higher = firmer interaction; quantity: positive tests
B1: IAA2 (Arabidopsis thaliana, UniProt P49678); chain MAYEKVNELNLKDTELCLGLPGRTEKIKEEQEVSCVKSNNKRLFEETRDEEESTPPTKTQIVGWPPVRSSRKNNNSVSYVKVSMDGAPYLRKIDLKTYKNYPELLKALENMFKVMIGEYCEREGYKGSGFVPTYEDKDGDWMLVGDVPWDMFSSSCKRLRIMKGSDAPALDSSL
partner = IAA10 (Arabidopsis thaliana, UniProt Q38828); value = 3
partner = ARF19 948-1086 (Arabidopsis thaliana, UniProt Q8RYC8); value = 4
partner = IAA8 (Arabidopsis thaliana, UniProt Q38826); value = 4
partner = ARF11 500-622 (Arabidopsis thaliana, UniProt Q9ZPY6); value = 0
partner = ARF10 575-693 (Arabidopsis thaliana, UniProt Q9SKN5); value = 0
partner = ARF14 497-605 (Arabidopsis thaliana, UniProt Q9LQE8); value = 0
partner = ARF2 727-859 (Arabidopsis thaliana, UniProt Q94JM3); value = 1
partner = IAA19 (Arabidopsis thaliana, UniProt O24409); value = 2

Series 4 — effect on: enzyme activity; mode: inhibitor; tested at: 0.5 µM; relative to: control; quantity: remaining activity
Target: Serine/threonine-protein kinase Nek3 (NEK3, Homo sapiens, UniProt P51956)
Chain of UniProt P51956 (whole entry, looked up): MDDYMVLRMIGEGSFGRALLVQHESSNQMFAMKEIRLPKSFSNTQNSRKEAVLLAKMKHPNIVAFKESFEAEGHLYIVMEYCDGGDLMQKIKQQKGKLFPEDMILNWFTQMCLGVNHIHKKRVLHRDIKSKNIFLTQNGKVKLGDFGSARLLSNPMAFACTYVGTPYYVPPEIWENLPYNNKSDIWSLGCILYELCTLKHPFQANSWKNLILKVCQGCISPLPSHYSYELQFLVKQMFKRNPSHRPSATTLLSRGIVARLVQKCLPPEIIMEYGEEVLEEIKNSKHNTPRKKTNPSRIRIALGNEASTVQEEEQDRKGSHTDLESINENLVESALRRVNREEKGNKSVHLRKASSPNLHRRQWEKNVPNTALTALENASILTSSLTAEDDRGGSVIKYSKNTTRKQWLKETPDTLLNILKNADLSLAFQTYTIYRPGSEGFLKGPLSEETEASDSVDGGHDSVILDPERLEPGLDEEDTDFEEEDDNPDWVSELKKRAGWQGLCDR
SMILES = N#CC(C#N)=C(N)/C(C#N)=C/c1ccc(O)cc1; value = 98%
SMILES = O=C(CCCc1ccc(-c2ccccc2F)cc1)Nc1ccc(O)cc1; value = 109%
SMILES = O=C(Nc1cccc(Nc2cc(Nc3cccc(C(F)(F)F)c3)ncn2)c1)C1CC1; value = 94.4%
SMILES = Oc1ccc(-c2nc(-c3ccncc3)c(-c3ccc(F)cc3)[nH]2)cc1; value = 99.3%
SMILES = Nc1ncnc2n[nH]c(Nc3ccc(F)cc3)c12; value = 102%
SMILES = O=C1NC(=O)C(c2cn(CCCO)c3ncccc23)=C1c1cnccn1; value = 97.5%
SMILES = COc1ccc(OC)c2c(=S)c3ccccc3[nH]c12; value = 107%
SMILES = Cc1cccc(-c2[nH]c(C(C)(C)C)nc2-c2ccc3c(c2)OCO3)n1; value = 85.6%
SMILES = Cn1c2ccccc2c2c3c(c4c5ccccc5n(CCC#N)c4c21)CNC3=O; value = 133%
SMILES = OCC(O)CCON=C1C(c2c(O)[nH]c3ccccc23)=Nc2ccccc21 (stereo not drawn); value = 102%
SMILES = C#Cc1cccc(Nc2ncnc3cc(OCCOC)c(OCCOC)cc23)c1; value = 95.6%
SMILES = CO[C@H]1C[C@@H]2CC[C@@H](C)[C@@](O)(O2)C(=O)C(=O)N2CCCC[C@H]2C(=O)O[C@H]([C@H](C)C[C@@H]2CC[C@@H](O)[C@H](OC)C2)CC(=O)[C@H](C)/C=C(\C)[C@@H](O)[C@@H](OC)C(=O)[C@H](C)C[C@H](C)/C=C/C=C/C=C/1C; value = 99%
SMILES = Cc1nc(-c2ccccc2)c(-c2ccncc2)o1; value = 93.7%

Excerpt of the above (series 2):
Variant = Q55C; value = -0.567 natural log
Variant = A46I; value = -0.523 natural log
Variant = L59T; value = -1.39 natural log
Variant = L52S; value = -1.46 natural log
Variant = V56G; value = -1.38 natural log
Variant = Q55K; value = -0.459 natural log
Variant = L31S; value = -1.21 natural log
